Experimental data pooled from the literature.
A part holds a random share of what one study measured. Substitutions count along the parent as printed.
Sequence of UniProt Q15835 (whole entry, looked up): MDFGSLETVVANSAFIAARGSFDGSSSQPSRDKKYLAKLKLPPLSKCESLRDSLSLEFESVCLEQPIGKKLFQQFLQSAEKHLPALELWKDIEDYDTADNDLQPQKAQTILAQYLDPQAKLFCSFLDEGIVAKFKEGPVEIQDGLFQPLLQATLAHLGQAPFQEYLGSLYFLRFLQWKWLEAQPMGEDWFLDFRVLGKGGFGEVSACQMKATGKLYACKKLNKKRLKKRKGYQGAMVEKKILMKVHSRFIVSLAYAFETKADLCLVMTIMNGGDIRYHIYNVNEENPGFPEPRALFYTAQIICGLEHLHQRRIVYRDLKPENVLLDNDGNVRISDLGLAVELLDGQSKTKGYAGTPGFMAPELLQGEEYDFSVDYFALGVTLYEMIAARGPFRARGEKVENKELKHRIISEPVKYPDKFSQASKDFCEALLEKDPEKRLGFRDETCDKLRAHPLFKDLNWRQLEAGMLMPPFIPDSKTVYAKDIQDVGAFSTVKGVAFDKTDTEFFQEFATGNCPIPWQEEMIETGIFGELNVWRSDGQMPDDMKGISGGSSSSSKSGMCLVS

Set 1 — effect on: binding; technique: phage display NGS; molecule type: peptide; tested at: concentration not given; setting: panning round 2; baseline: input library; quantity: enrichment fold change
Target: UDP-N-acetylglucosamine--peptide N-acetylglucosaminyltransferase 110 kDa subunit (OGT, Homo sapiens, UniProt O15294)
Sequence of UniProt O15294 (whole entry, looked up): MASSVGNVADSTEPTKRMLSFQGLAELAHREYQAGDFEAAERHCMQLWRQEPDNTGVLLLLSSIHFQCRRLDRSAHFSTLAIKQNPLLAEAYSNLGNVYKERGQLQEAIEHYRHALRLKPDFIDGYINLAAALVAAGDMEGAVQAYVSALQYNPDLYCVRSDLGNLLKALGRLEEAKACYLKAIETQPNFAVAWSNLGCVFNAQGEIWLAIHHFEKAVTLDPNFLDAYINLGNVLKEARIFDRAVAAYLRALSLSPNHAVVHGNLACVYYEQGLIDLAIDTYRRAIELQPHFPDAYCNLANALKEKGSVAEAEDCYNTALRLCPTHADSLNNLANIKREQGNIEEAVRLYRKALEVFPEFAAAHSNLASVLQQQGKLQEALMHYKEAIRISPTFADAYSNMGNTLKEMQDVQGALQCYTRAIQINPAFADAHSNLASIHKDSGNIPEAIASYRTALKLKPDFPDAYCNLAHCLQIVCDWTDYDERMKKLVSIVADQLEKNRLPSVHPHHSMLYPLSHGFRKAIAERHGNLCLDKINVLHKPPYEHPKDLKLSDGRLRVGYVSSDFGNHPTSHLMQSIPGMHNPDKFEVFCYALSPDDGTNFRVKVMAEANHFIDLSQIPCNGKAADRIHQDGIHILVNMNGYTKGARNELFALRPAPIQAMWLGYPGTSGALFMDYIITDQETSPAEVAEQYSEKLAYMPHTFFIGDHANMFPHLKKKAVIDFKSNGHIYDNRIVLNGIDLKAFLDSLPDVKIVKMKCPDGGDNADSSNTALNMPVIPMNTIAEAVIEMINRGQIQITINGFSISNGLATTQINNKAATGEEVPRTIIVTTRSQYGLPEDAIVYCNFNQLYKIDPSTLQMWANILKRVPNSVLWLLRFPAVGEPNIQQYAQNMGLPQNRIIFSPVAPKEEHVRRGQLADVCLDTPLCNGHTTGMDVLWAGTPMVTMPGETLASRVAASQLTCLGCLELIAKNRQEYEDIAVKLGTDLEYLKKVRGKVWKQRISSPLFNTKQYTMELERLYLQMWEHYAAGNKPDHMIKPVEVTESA
HAQHTVQGNHQHVAH: 20.8
RDIMPDYHPIYQIRI: 23.3
HPHGHRNTAISWTAM: 4.59
FSFKPVYEIVLEQK: 14.7

Set 2 — target: CCND2, cyclin fold, Cln2 fusion (human); technique: yeast growth competition, sequencing; medium: yeast; setting: weak parent motif; baseline: not given; reading: higher = stronger binding; quantity: normalised enrichment score; parent: viral docking peptide; TSVRRALFTGGSD
R4P: 0.335
R4A: 0.06
G11V: 0.283
G10Q: -0.158
L7Q: -0.0146
L7F: -0.091
T9E: 0.13
A6M: -0.344

Set 3 — target: tungstate, free oxyanion; technique: microfluidic competitive inhibition; medium: in vitro, cell-free expressed; tested at: not given; reading: lower = stronger binding; quantity: oxyanion analog dissociation constant
Setting: derived from inhibition constants, unchanged parent 2230 nM
Parent: PafA, mature enzyme, eGFP fusion (Elizabethkingia meningoseptica, UniProt Q9KJX5); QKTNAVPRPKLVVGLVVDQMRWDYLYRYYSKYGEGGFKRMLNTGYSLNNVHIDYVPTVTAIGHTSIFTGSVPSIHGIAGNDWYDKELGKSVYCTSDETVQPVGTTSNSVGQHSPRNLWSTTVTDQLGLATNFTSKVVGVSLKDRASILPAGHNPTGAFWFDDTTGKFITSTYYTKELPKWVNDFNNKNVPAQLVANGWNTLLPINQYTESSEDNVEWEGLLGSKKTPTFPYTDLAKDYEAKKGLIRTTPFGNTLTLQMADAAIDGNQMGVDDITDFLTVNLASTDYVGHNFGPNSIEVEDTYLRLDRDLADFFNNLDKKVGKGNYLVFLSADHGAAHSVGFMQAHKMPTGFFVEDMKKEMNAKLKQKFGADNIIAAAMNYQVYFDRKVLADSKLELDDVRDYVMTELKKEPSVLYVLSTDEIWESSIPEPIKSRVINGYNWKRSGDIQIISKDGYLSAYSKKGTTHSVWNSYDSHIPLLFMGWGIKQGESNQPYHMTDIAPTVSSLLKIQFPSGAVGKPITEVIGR
T3G: 2.22 µM
M258V: 3.02 µM
H466V: 12.9 µM
A370V: 2.51 µM
L41G: 1.87 µM
A335V: 2.97 µM
G292A: 2.26 µM
V71G: 807 nM

Mixed results
COC(=O)c1cc(N(C)C(=O)c2ccn3ncc(-c4ccc(C(=O)O)cc4)c3c2)ccc1Cl  IC50 (Rhodopsin kinase GRK1 (GRK1, Homo sapiens, UniProt Q15835); enzyme activity, inhibitor): > 30 µM

Excerpt of the above (set 3):
G292A: 2.26 µM
